Published values pooled from the literature.
A part holds a random share of what one study measured. Substitutions count along the parent as printed.
Chain of UniProt Q07912 (whole entry, looked up): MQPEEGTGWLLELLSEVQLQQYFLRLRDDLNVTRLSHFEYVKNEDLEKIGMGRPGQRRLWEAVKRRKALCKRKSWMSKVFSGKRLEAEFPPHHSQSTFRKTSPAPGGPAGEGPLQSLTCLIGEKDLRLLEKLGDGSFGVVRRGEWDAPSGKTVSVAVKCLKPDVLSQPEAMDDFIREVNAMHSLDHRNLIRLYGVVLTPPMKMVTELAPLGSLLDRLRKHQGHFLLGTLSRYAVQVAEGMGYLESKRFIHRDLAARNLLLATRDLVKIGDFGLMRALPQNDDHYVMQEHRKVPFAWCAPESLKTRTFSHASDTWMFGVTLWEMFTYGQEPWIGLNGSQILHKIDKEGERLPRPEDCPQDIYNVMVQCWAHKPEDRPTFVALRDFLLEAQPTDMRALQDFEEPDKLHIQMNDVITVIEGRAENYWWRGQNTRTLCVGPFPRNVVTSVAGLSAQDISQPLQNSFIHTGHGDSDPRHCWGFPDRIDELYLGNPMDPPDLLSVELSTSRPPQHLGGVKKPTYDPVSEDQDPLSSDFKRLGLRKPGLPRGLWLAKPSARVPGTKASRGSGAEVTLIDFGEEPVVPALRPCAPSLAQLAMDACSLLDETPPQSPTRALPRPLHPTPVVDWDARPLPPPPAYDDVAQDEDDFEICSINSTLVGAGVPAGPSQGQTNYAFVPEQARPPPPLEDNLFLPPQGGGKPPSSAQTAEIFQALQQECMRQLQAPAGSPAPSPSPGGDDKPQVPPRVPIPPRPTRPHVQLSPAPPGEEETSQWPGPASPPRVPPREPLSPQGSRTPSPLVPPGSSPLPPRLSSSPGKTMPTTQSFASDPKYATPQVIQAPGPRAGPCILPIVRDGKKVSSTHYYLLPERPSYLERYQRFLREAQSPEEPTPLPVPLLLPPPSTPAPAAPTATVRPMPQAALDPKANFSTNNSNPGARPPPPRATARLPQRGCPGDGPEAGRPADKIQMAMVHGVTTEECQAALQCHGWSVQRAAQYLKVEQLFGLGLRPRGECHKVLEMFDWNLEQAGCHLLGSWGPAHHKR
Chain of UniProt P21802 (whole entry, looked up): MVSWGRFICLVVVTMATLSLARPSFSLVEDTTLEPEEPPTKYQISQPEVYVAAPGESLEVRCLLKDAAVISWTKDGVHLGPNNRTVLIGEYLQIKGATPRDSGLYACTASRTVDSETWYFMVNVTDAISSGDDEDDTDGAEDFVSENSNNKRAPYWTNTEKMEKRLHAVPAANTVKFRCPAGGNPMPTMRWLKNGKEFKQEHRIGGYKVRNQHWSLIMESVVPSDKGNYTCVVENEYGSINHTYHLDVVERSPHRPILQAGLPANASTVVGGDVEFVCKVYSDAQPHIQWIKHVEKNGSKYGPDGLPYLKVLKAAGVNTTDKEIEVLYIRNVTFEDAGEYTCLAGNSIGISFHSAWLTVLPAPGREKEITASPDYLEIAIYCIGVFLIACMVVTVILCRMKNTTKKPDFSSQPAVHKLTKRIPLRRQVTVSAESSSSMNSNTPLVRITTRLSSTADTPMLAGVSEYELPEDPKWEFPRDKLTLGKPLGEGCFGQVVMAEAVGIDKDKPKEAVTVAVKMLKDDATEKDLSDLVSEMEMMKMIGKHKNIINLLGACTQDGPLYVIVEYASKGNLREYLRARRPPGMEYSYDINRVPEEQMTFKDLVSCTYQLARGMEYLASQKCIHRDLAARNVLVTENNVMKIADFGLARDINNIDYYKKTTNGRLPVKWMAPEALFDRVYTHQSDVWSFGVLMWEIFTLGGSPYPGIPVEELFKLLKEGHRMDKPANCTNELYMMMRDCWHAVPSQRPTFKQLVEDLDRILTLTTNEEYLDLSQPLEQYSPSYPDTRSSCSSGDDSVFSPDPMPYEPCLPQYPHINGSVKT

Set 1
Target: UDP-N-acetylglucosamine--peptide N-acetylglucosaminyltransferase 110 kDa subunit (OGT, Homo sapiens, UniProt O15294)
Chain of UniProt O15294 (whole entry, looked up): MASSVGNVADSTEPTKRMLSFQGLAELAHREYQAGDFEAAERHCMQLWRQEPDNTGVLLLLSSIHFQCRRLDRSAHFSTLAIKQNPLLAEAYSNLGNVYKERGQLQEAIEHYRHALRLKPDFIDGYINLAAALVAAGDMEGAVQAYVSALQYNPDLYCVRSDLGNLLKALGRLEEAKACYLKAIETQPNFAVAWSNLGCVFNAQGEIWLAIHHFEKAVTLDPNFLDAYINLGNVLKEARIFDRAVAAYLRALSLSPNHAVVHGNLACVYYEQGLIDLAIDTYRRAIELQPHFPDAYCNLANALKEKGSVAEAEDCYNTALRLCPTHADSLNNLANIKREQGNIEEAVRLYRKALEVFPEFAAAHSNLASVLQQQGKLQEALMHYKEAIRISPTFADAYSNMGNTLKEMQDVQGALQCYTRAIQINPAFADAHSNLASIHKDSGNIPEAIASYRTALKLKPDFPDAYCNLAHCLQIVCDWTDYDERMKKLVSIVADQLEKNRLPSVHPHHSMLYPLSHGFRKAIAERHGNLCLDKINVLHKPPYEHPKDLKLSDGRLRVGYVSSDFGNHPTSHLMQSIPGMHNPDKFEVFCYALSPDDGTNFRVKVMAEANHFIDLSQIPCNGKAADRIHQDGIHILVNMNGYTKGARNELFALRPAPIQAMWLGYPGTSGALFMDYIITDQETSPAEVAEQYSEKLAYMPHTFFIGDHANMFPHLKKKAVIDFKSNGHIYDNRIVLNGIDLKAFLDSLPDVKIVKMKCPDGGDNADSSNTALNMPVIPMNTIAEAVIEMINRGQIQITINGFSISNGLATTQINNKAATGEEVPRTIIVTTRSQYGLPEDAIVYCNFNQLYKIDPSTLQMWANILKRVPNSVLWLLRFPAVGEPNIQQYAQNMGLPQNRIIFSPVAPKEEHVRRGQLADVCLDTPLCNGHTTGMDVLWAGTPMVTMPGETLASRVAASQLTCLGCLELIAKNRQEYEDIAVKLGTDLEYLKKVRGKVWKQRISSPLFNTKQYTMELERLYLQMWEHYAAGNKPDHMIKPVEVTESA
Read-out: binding
Method: phage display NGS
Form: peptide
Baseline: input library
Sequence	minimum log2 enrichment ratio
TDSYMPVYEIKSKAV	2.5
QYLPQYQILPVIYSS	1.21
SKSHHTEKFWHYTHV	3
WSIHHMPRHESKYTD	2.87
WPHNWAYHGFDWHA	5.8
HFISPHPHRVENRMH	1.7
AHHSAWAPKYLINI	3.43
GMEPYHPVYQIVTNN	1.74

Set 2
Target: vanadate, free oxyanion
Method: microfluidic competitive inhibition
Matrix: in vitro, cell-free expressed
Tested at: not given
Setting: derived from inhibition constants, unchanged parent 676 nM
Reading: lower = stronger binding
Starting sequence: PafA, mature enzyme, eGFP fusion (Elizabethkingia meningoseptica, UniProt Q9KJX5); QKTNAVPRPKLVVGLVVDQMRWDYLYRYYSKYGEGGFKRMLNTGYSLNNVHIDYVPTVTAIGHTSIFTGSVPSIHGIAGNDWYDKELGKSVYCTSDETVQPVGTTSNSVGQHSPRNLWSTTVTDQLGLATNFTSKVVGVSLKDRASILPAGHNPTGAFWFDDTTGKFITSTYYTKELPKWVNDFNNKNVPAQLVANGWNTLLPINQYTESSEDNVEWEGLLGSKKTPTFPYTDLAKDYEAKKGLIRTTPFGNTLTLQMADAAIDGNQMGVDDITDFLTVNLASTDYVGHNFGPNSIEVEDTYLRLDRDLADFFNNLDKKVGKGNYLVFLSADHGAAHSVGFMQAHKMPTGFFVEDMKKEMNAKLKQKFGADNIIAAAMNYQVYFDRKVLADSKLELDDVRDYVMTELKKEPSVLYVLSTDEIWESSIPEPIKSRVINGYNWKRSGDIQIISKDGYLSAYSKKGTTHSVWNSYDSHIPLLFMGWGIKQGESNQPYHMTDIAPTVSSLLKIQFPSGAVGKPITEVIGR
Substitution	oxyanion analog dissociation constant [µM]
R115V	0.601
I147V	0.837
A78G	0.612
I273V	0.846
A515V	0.708
G69A	1.29
W469V	0.51
V13G	0.647

Set 3
Target: 5-hydroxytryptamine receptor 2C (HTR2C, Homo sapiens, UniProt P28335)
Chain of UniProt P28335 (whole entry, looked up): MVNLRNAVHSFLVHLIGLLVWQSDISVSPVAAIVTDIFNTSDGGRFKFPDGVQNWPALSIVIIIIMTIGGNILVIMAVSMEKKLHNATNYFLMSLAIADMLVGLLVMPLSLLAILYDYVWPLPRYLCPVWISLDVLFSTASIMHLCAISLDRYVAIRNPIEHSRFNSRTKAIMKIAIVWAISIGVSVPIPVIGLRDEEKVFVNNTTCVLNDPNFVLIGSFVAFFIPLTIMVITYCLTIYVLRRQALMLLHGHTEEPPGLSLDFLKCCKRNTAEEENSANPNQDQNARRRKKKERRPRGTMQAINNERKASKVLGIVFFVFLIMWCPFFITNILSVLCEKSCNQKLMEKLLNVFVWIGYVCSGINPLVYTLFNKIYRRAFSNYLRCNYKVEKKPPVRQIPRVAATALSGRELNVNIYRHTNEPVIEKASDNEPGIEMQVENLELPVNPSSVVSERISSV
Read-out: ligand displacement
Tested at: 10 µM
Compound	inhibition
O=C(Nc1cccnn1)N1CC(CC=Cc2cncc(Oc3ccc(C(F)(F)F)cn3)n2)C1	1.89%
O=C(O)[C@H]1[C@H](Cn2nnc3ccccc3c2=O)CC[C@@H]1C(=O)c1ccc(OCCC2CCOCC2)cc1	22.4%
O=C(NCc1ncc(C(F)(F)F)cc1Cl)c1ccc2c(c1)C1(CCS(=O)(=O)CC1)[C@@H](C1CC1)N2S(=O)(=O)c1ccc(F)cc1	16.9%
CCS(=O)(=O)c1cc2cc(C[C@](O)(CC(C)(C)c3ccc(F)cc3C(N)=O)C(F)(F)F)[nH]c2cn1	0.64%

Set 4
SMILES: N/C(=N\[N+](=O)[O-])N/N=C\c1ccc(-c2cccc([N+](=O)[O-])c2)o1
Read-out: enzyme activity
Mode: inhibitor
Tested at: 0.5 µM
Baseline: control
target	remaining activity
Fibroblast growth factor receptor 2 (FGFR2, Homo sapiens, UniProt P21802)	104%
RAF proto-oncogene serine/threonine-protein kinase (RAF1, Homo sapiens, UniProt P04049)	98.1%
Activated CDC42 kinase 1 (TNK2, Homo sapiens, UniProt Q07912)	99.9%

Repeated from above (set 3):
Compound	inhibition
O=C(NCc1ncc(C(F)(F)F)cc1Cl)c1ccc2c(c1)C1(CCS(=O)(=O)CC1)[C@@H](C1CC1)N2S(=O)(=O)c1ccc(F)cc1	16.9%
CCS(=O)(=O)c1cc2cc(C[C@](O)(CC(C)(C)c3ccc(F)cc3C(N)=O)C(F)(F)F)[nH]c2cn1	0.64%
